Measurements of several laboratories.
Protocols differ between the studies behind these lines.
Organism: Human immunodeficiency virus 1

SMILES	test	test system	conditions	measurement	value
C[C@]1(CO)O[C@@H](n2cnc3c(=O)[nH]c(N)nc32)C[C@@H]1O	cytopathic effect, MTT	MT4		IC50	171 nM
C=C(C)[C@]12C[C@@H](COC(=O)c3ccccc3)[C@@]34OC5(O[C@@H]1[C@@H]3[C@@H]1O[C@]1(COC(C)=O)[C@@H](OC(C)=O)[C@@]1(O)[C@H]4[C@H]([C@H](C)[C@@H]1OC(=O)c1ccccc1)[C@H](C)CCCCCC[C@H]5OC(C)=O)O2	viral replication, inhibitor	MT4, NL43	72 h	IC50	≥ 1 nM
Nc1nc(N)c2ncn([C@H]3C[C@H](O)[C@](CO)(CF)O3)c2n1	cytopathic effect, MTT	MT4		IC50	3 nM
O=c1c(O)c(-c2ccc(O)c(O)c2)oc2cc(O)cc(O)c12	viral replication	TZM-bl, BAL	48 h	IC50	3840 nM
Cc1ccnc2c1NC(=O)c1cccnc1N2C1CC1	viral replication	MAGI-CCR5, NL43		IC90	540 nM
OCCn1c(Cl)nc2ccccc21	viral replication, inhibitor	TZM-bl	1 µg/mL	inhibition	0.27%
C#C[C@]1(CO)O[C@@H](n2ccc(N)nc2=O)C[C@@H]1O	cytopathic effect, MTT	MT4		IC50	25.2 nM
O=[N+]([O-])c1ccc2c(c1)nc(Cl)n2CCO	viral replication, inhibitor	TZM-bl	10 µg/mL	inhibition	15.6%
O=c1c(O)c(-c2ccc(O)cc2)oc2cc(O)cc(O)c12	viral replication	TZM-bl, BAL	48 h	IC50	8730 nM
OCCCn1c(Cl)nc2ccccc21	viral replication, inhibitor	TZM-bl	10 µg/mL	inhibition	4.56%
Nc1ccn([C@H]2C[C@H](O)[C@](CO)(CF)O2)c(=O)n1	cytopathic effect, MTT	MT4		IC50	32.9 nM
O=[N+]([O-])c1cc2nc(Cl)n(CCCO)c2cc1[N+](=O)[O-]	viral replication, inhibitor	TZM-bl	1 µg/mL	inhibition	-0.46%
CC1=C[C@@H]2C(=O)[C@]3(C=C(C)[C@H](O)[C@@]3(O)[C@@H]1O)[C@H](C)C[C@@H]1[C@H]2C1(C)C	viral replication	MT4, NL43		IC50	> 1000 nM

Repeated from above:
SMILES	test	test system	conditions	measurement	value
C[C@]1(CO)O[C@@H](n2cnc3c(=O)[nH]c(N)nc32)C[C@@H]1O	cytopathic effect, MTT	MT4		IC50	171 nM
